Earlier results, collected from citations in different studies.
Numbers after ± are the reported error.
EGFR L858R/T790M: Epidermal growth factor receptor (EGFR, Homo sapiens, UniProt P00533, L858R/T790M)
ribH: 6,7-dimethyl-8-ribityllumazine synthase (ribH, Mycobacterium tuberculosis, UniProt P9WHE9)
Chain of UniProt P9WHE9 (whole entry, looked up): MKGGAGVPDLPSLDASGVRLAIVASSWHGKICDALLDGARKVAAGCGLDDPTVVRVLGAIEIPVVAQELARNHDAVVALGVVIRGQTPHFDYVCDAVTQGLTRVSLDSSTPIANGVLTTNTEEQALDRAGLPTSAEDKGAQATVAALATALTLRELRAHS
Chain of UniProt Q5U3Y7 (whole entry, looked up): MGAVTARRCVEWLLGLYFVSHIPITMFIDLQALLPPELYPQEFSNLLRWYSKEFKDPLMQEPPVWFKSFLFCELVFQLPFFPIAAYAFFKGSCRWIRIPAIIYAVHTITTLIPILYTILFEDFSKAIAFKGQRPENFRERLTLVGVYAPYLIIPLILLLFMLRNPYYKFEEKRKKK
Chain of UniProt Q92793 (whole entry, looked up): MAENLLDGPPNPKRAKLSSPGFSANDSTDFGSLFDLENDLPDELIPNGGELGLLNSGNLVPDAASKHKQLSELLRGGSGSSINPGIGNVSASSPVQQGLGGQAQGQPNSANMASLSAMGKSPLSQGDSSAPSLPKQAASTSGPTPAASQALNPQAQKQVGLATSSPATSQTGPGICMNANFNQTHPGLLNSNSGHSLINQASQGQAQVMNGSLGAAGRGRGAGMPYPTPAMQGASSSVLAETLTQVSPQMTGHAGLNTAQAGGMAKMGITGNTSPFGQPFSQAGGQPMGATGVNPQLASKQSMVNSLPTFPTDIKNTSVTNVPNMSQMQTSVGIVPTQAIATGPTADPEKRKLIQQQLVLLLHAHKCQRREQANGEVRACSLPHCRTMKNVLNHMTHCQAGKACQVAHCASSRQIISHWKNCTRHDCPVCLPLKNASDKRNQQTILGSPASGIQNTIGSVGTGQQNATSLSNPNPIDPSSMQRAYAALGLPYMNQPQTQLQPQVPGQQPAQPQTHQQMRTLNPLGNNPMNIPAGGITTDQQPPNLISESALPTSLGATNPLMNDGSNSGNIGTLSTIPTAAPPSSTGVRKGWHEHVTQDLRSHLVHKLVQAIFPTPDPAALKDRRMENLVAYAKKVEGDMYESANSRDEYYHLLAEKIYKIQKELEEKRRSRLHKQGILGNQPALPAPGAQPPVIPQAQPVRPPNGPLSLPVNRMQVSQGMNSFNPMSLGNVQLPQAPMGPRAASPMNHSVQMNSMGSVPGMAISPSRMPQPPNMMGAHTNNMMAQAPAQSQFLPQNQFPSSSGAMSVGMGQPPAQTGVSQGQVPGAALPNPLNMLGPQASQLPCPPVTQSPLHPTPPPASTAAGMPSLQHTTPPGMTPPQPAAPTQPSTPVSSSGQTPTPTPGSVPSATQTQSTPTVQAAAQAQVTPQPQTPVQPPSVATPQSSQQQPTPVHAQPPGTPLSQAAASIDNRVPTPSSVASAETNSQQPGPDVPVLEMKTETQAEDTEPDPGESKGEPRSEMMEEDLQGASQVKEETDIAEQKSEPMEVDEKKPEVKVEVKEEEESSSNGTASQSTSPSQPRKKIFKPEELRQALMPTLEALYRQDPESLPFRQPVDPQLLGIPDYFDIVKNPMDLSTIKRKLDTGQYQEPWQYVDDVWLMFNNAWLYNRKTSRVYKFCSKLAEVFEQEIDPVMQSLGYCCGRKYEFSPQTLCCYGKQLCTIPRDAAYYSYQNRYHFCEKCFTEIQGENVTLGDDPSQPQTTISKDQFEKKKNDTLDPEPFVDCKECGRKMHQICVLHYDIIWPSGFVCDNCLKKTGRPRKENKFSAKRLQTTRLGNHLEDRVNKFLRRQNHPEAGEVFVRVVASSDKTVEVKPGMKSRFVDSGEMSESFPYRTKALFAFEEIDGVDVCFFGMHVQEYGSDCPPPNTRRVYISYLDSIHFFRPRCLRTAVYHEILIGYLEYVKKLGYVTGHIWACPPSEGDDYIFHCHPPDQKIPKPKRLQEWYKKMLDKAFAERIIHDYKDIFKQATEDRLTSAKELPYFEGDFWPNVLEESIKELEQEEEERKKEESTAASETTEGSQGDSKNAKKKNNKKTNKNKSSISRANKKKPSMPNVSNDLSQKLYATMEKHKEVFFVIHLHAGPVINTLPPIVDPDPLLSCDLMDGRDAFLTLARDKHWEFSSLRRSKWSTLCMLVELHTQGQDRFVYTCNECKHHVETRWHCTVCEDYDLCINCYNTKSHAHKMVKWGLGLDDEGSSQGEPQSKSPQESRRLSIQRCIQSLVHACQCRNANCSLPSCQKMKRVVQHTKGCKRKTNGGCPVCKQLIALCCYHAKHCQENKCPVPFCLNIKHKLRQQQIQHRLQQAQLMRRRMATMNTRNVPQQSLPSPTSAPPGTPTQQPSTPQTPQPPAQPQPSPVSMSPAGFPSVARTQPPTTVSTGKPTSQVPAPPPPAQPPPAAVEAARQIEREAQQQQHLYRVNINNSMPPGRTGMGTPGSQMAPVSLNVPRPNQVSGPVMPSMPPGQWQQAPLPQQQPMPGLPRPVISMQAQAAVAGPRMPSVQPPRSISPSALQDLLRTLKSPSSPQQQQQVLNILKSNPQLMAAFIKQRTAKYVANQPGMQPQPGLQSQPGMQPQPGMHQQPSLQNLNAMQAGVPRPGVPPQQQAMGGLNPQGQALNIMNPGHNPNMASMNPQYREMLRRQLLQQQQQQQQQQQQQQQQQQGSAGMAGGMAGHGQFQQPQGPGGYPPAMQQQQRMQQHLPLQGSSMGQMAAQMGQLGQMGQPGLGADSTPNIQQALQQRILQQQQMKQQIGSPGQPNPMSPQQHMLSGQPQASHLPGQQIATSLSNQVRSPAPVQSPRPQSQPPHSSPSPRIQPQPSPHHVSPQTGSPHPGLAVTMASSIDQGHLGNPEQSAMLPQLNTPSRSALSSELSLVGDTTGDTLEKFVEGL
Chain of UniProt Q05097 (whole entry, looked up): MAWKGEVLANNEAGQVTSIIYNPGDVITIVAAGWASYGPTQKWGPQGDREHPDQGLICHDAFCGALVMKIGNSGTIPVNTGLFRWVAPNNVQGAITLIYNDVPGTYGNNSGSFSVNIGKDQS
Chain of UniProt Q9UUB1 (whole entry, looked up): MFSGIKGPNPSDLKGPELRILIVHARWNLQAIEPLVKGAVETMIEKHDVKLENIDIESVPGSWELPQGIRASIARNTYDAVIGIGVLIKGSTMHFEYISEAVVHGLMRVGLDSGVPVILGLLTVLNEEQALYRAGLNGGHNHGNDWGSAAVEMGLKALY
Chain of UniProt P35499 (whole entry, looked up): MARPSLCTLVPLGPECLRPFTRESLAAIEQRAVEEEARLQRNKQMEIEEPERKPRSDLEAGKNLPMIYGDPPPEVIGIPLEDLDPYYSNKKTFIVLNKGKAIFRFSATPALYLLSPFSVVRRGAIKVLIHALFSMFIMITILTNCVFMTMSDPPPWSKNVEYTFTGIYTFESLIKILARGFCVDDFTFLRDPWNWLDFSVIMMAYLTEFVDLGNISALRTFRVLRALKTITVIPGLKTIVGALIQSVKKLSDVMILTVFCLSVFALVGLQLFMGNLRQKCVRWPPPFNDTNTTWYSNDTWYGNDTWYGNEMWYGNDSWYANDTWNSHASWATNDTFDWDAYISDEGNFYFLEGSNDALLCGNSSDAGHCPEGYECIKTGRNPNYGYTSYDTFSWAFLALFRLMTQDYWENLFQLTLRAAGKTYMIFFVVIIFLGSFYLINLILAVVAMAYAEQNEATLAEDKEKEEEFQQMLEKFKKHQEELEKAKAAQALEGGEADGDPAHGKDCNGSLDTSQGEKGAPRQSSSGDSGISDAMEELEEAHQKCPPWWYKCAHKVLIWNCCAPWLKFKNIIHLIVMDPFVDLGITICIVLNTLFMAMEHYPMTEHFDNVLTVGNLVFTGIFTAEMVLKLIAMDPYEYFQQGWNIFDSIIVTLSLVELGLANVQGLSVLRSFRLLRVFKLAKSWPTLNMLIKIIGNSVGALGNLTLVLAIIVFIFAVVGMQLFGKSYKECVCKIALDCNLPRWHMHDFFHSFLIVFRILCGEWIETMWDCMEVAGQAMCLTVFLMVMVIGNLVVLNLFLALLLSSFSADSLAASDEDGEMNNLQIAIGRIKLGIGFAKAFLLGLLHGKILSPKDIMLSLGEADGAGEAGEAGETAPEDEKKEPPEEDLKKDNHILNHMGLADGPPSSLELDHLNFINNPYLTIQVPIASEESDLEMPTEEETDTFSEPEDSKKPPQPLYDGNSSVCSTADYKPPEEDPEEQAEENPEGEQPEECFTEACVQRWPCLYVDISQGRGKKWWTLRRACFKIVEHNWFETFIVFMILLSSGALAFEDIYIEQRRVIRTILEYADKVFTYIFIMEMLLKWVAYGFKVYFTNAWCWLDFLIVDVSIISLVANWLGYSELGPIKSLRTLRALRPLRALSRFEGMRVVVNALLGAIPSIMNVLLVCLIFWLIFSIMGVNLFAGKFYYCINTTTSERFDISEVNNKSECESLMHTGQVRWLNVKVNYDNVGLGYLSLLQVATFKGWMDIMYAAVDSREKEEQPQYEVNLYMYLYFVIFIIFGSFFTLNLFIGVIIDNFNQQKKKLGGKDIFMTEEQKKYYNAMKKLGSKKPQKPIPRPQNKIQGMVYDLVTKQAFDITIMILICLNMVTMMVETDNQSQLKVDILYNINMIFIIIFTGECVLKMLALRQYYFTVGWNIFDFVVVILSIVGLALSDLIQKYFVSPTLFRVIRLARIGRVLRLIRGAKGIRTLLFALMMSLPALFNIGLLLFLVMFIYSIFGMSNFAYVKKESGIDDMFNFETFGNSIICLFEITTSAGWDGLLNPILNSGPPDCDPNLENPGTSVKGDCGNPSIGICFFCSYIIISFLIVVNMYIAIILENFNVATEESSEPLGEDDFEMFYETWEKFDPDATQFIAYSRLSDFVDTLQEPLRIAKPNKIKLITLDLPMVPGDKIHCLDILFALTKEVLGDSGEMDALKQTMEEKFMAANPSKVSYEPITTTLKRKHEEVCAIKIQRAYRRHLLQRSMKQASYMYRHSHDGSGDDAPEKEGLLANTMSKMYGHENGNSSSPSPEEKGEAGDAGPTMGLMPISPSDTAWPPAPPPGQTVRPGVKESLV

Compound | target | test | test system | conditions | how to read | quantity | result
C=CC(=O)N1CCC[C@@H](n2nc(-c3ccc4ccccc4c3)c3c(N)ncnc32)C1 | EGFR L858R/T790M |  |  |  |  | kinact | 0.17 ± 0.02 min⁻¹
CCSc1nc(-c2cccc(OCc3ccccc3)c2)cc(C(F)(F)F)n1 | GLP1R (Homo sapiens, UniProt P43220) |  | GLP1R overexpressing cells | concentration not given |  | activity class | inactive
CCOc1ccc(C(C)=O)cc1NC(=O)c1cccc(C(=O)O)c1 | CREB-binding protein, bromodomain (CREBBP, Homo sapiens, UniProt Q92793) |  |  |  | baseline: Kd BRD4(1) over Kd CREBBP | selectivity ratio | > 65 fold
C=CC(=O)N1CCC[C@@H](n2nc(-c3cccc4ccccc34)c3c(N)ncnc32)C1 | EGFR (Homo sapiens, UniProt P00533) |  |  |  |  | kinact | 0.13 ± 0.05 min⁻¹
O=c1[nH]c(SC[C@H](O)[C@H](O)[C@H](O)CO)c([N+](=O)[O-])c(=O)[nH]1 | ribH | enzyme kinetics |  | pH 7.0, added: substrate 2 fixed, 1 varied | lower = tighter substrate binding | Ks | 36 ± 3 µM
COc1cc2c(cc1OC)CN(CCCCn1ccc3cc(OCCF)ccc31)C2 | Tmem97 (Rattus norvegicus, UniProt Q5U3Y7) | binding |  |  | baseline: Ki sigma1 over Ki sigma2 | selectivity ratio | 57
CC(C)C(C)Nc1ccnc2cc(Cl)ccc12 (stereo not drawn) | Nuclear receptor subfamily 4 group A member 2, ligand binding domain (Homo sapiens, UniProt P43354) | agonist |  | concentration not given | baseline: DMSO | maximum activation | 1.47 fold
CCOC(=O)C(=O)Nc1c(NC[C@H](O)[C@H](O)[C@H](O)CO)[nH]c(=O)[nH]c1=O | ribH |  |  | pH 7.0 |  | Ki (uncompetitive, ESI) | 35 ± 14 µM
Cc1cccc(C)c1NC(=O)C1CCN(Cc2ccccc2)C1 (stereo not drawn) | SCN4A (Homo sapiens, UniProt P35499) | sodium current block, in vitro |  | tonic block, 0.1 Hz |  | Hill coefficient | 0.9 ± 0.1
OCCn1cc(CO[C@@H]2O[C@H](CO)[C@H](O)[C@H](O)[C@H]2O)nn1 | lecA (Pseudomonas aeruginosa, UniProt Q05097) | ITC |  | concentration not given |  | binding stoichiometry | 0.92
C[C@H](N)C(=O)N[C@@H](CCCNC(=N)N)C(=O)N[C@H](C(=O)N[C@@H](CCCC[N+](C)(C)C)C(=O)N[C@@H](CCC(N)=O)C(=O)N[C@H](C(=O)N[C@@H](C)C(=O)N[C@@H](CCCNC(=N)N)C(=O)N[C@@H](CCCCN)C(=O)N[C@@H](CO)C(=O)O)[C@@H](C)O)[C@@H](C)O | Eaf3 N-terminal domain, yeast | bead pull-down |  | concentration not given |  | binding | binds
Nc1c(SC[C@H](O)[C@H](O)[C@H](O)CO)[nH]c(=O)[nH]c1=O | 6,7-dimethyl-8-ribityllumazine synthase (rib4, Schizosaccharomyces pombe, UniProt Q9UUB1) | enzyme kinetics |  | pH 7.0 |  | kcat | 0.0283 s⁻¹
CO[C@H]1O[C@H](CO)[C@@H](O)[C@H](O)[C@@H]1O | lecB (Pseudomonas aeruginosa, UniProt Q9HYN5) | binding, ITC |  |  |  | −TΔS | -1.4 kcal/mol
CC(=O)N[C@@H](Cc1ccccc1)C(=O)N[C@@H](CC(=O)O)C(=O)N[C@@H](CC(N)=O)C(=O)N1CCC[C@H]1C(=O)N[C@H](C(=O)N[C@@H](C)C(=O)O)C(C)C | LDL receptor, position 807 mutant |  |  |  | baseline: native LDL receptor | internalization index | 0.2
C=CC(=O)N1CCC[C@@H](n2nc(-c3cn(C)c4ccccc34)c3c(N)ncnc32)C1 | EGFR L858R/T790M |  |  |  |  | kinact/Ki | 360000 ± 90000 M⁻¹ s⁻¹

A few entries again:
Compound | target | test | test system | conditions | how to read | quantity | result
CC(=O)N[C@@H](Cc1ccccc1)C(=O)N[C@@H](CC(=O)O)C(=O)N[C@@H](CC(N)=O)C(=O)N1CCC[C@H]1C(=O)N[C@H](C(=O)N[C@@H](C)C(=O)O)C(C)C | LDL receptor, position 807 mutant |  |  |  | baseline: native LDL receptor | internalization index | 0.2
